Published values pooled from the literature.
A part holds a random share of what one study measured.
Chain of UniProt Q9UKE5 (whole entry, looked up): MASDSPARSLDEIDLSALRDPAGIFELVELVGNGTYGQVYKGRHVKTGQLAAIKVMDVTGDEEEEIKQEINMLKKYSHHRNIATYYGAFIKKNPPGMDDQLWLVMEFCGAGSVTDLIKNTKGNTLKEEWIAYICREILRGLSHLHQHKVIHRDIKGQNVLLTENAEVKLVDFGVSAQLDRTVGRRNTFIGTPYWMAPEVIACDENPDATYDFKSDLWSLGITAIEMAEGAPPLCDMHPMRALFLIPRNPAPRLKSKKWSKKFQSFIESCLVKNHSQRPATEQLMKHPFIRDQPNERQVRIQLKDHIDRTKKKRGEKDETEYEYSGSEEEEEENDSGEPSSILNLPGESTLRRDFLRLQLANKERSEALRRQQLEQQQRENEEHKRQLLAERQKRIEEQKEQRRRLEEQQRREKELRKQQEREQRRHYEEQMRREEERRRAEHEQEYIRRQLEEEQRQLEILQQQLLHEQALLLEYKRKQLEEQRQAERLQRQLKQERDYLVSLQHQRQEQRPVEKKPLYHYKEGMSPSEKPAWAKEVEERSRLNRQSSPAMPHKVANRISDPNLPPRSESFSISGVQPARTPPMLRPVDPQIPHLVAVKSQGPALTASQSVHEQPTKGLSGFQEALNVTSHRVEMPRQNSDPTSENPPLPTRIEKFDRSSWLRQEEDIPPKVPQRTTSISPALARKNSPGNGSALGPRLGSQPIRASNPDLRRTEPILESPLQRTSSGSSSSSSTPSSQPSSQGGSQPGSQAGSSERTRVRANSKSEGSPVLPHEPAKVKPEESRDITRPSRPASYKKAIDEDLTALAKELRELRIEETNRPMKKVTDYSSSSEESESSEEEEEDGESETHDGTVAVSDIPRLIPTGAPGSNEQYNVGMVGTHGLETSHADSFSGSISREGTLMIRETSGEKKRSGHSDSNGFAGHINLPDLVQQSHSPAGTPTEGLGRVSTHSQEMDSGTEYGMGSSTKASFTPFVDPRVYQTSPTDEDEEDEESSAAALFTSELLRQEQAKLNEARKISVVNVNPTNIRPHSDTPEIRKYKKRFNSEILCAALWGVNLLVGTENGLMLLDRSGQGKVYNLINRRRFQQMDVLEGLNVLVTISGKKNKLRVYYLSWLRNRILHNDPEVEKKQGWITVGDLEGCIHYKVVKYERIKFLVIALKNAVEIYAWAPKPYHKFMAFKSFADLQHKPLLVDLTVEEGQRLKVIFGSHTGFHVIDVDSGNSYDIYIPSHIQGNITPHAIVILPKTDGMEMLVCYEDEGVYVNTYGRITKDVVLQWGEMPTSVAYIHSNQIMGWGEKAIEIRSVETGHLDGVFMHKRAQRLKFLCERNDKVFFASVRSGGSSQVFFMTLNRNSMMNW
Chain of UniProt P78356 (whole entry, looked up): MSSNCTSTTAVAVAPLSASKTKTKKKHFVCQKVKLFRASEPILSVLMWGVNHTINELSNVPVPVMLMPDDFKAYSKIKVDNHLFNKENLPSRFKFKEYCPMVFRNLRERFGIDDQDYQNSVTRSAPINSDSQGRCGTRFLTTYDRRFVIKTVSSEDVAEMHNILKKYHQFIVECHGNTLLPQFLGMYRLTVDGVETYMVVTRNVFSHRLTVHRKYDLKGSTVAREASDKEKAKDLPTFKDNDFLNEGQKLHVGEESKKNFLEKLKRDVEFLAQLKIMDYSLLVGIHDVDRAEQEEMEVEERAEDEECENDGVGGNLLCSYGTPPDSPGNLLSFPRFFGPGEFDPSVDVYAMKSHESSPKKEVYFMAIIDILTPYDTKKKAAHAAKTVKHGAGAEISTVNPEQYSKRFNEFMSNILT
Chain of UniProt Q09013 (whole entry, looked up): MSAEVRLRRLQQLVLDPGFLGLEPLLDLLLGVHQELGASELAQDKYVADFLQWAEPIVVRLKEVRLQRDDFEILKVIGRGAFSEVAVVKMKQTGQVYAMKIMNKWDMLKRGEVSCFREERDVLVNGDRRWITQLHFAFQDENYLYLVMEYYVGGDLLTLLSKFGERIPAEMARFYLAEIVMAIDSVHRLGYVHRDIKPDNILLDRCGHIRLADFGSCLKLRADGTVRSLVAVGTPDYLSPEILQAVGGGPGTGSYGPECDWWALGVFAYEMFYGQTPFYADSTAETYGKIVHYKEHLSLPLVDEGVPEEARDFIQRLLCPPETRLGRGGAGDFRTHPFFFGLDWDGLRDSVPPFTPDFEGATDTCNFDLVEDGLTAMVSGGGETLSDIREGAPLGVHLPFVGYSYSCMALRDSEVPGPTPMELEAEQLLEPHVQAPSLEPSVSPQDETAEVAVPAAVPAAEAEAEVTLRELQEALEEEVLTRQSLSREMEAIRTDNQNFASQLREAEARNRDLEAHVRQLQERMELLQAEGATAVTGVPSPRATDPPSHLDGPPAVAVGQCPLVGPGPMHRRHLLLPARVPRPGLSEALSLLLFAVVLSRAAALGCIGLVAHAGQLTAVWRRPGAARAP
Chain of UniProt P41279 (whole entry, looked up): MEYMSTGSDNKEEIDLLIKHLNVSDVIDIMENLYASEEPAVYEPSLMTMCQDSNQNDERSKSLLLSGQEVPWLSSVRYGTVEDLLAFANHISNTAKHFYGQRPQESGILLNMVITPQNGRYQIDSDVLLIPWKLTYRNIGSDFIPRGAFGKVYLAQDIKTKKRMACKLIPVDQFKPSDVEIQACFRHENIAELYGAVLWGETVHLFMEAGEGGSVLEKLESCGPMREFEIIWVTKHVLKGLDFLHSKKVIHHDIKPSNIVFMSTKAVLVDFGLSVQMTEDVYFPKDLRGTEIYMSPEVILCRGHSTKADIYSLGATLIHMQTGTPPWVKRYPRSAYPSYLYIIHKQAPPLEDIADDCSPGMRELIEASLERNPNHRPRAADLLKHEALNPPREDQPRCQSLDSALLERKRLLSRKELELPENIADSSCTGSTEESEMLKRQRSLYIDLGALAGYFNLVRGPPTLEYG
Chain of UniProt O15530 (whole entry, looked up): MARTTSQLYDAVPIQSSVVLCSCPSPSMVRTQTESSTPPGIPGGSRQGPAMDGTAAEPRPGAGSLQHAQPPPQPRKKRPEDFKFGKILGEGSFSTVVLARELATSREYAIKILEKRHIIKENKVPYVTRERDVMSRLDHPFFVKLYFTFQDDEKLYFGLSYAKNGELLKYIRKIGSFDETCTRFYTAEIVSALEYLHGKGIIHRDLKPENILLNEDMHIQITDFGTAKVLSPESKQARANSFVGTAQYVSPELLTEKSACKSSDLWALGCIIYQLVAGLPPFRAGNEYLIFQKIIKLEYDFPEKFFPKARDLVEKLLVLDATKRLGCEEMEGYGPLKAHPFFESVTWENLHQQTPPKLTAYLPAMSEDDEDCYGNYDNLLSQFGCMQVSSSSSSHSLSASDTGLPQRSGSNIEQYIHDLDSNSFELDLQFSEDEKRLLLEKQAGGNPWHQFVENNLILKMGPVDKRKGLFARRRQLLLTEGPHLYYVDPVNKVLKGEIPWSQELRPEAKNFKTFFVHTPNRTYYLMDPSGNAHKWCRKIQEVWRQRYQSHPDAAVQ
Chain of UniProt P50613 (whole entry, looked up): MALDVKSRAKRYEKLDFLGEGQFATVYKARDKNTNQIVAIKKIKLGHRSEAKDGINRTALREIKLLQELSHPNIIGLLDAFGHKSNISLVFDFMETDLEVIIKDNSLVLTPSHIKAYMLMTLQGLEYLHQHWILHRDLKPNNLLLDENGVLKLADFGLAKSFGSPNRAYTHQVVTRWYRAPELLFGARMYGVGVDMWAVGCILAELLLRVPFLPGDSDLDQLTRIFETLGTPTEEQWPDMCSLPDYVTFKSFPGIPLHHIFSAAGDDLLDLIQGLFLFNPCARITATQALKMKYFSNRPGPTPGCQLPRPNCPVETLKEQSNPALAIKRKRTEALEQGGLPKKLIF
Chain of UniProt Q9H422 (whole entry, looked up): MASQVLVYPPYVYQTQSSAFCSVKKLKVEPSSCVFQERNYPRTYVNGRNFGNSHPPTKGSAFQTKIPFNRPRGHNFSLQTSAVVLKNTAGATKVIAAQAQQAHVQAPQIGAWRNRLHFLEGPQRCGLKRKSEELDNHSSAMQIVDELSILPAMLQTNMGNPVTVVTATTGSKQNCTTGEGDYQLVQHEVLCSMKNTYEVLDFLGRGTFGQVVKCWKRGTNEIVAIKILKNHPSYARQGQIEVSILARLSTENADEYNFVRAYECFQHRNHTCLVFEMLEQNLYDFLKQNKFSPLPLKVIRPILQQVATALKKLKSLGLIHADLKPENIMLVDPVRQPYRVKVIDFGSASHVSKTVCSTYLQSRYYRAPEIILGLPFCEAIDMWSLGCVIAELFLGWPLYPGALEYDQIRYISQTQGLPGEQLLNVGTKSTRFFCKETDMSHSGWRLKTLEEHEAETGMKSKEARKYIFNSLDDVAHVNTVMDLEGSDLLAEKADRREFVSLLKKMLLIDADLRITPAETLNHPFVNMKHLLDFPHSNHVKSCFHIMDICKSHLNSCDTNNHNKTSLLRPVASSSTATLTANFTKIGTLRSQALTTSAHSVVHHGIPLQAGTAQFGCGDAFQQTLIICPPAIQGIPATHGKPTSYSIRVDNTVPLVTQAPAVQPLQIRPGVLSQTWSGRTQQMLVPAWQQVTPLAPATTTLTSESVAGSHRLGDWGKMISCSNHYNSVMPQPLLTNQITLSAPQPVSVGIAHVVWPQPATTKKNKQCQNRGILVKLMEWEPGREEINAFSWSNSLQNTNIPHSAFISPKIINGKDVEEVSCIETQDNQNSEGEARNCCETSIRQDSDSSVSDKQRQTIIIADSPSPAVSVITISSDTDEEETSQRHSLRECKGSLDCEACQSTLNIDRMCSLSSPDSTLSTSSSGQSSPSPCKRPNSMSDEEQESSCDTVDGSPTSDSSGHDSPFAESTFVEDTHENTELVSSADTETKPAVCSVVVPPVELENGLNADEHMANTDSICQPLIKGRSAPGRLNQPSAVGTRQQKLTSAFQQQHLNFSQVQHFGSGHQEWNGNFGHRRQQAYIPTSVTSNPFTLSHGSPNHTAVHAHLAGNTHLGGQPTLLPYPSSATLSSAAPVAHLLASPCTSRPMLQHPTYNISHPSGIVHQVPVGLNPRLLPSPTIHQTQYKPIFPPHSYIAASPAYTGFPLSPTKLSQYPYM

Set 1
Matrix: hydrocarbon/water
With `CC(C)CC1NC(=O)CN(CC2CCOCC2)C(=O)C2CCCN2C(=O)C(CC(C)C)NC(=O)C(C)N(C)C(=O)C(CC(C)C)NC(=O)CN(Cc2ccc3c(c2)OCO3)C(=O)C2CCCN2C(=O)C(Cc2ccccc2)NC(=O)C(C)N(C)C1=O` (centres unmarked) the logD was 2.59.
For `CC(C)C[C@@H]1NC(=O)[C@H](Cc2ccc(O)cc2)N(C)C(=O)[C@H]2CCCN2C(=O)[C@H](CC(C)C)NC(=O)[C@H](CC(C)C)N(C)C(=O)[C@@H](C)N(C)C1=O`, the logD was 0.91.
For `CC(C)C[C@@H]1NC(=O)[C@H](Cc2ccccc2)N(C)C(=O)[C@H]2CCCN2C(=O)[C@H](CC(C)C)NC(=O)[C@H](C)N(C)C(=O)[C@@H](CC(C)C)N(C)C1=O`, the logD was 2.32.
`CC[C@@H]1C(=O)N(C)[C@@H](CC(C)C)C(=O)N[C@@H](CC(C)C)C(=O)N2CCC[C@@H]2C(=O)N(C)[C@@H](Cc2ccccc2)C(=O)N[C@@H](CC(C)C)C(=O)N1C` has a logD of 2.73.
The logD of `CC(C)C[C@@H]1NC(=O)[C@H](Cc2ccc(O)cc2)N(C)C(=O)[C@H]2CCCN2C(=O)[C@H](CC(C)C)NC(=O)[C@H](CC(C)C)N(C)C(=O)[C@@H](Cc2ccccc2)N(C)C1=O` is reported as 2.36.
`CCC[C@@H]1NC(=O)CN(CCC)C(=O)[C@H](CC(C)C)NC(=O)CSC[C@@H](C(=O)OCC)N(C)C(=O)[C@H](CC(C)C)NC(=O)[C@H](C)N(C)C(=O)[C@H](CC2CCCCC2)NC(=O)[C@H](C)N(C)C(=O)[C@H]2CCCN2C1=O` gave a logD of 2.79.

Set 2
Species: mouse
Matrix: microsomes or S9
Tested at: 2 µM
Time: 0.5 h
The remaining compound of `COc1ccc(-c2cn3c(C(=O)N4CCN(C/C=C/c5ccccc5)CC4)csc3n2)cc1` is reported as 0.0161%.
The remaining compound of `O=C(NCc1ccc(F)cc1)N1Cc2c(sc3c2CCCC3)-n2cccc2C1c1cccs1` (centres unmarked) is reported as 16.7%.
`CCn1c2ccccc2n2cc(-c3ccc4c(c3)OCO4)nc12` has a remaining compound of 0.865%.
`CC(C)(C)OC(=O)Nc1cccc(C(=O)NCc2c(F)cccc2F)n1` has a remaining compound of 9.89%.
For `Nc1nc(N2CCN(C3CCCCC3)CC2)nc2ccccc12`, the remaining compound was 0.0283%.
`COc1ccc(/C=C/c2nc(-c3cccnc3)no2)cc1OC` has a remaining compound of 35.3%.
The remaining compound of `CC(CCCC(C)(C)O)Cc1[nH]cnc1-c1ccccc1` (centres unmarked) is reported as 96.8%.
For `CCn1nccc1CN(C)S(=O)(=O)c1ccc(Br)s1`, the remaining compound was 4.81%.
`O=C(c1ncccn1)N1C2CCC1Cn1c(nnc1-c1ccccc1)C2` (centres unmarked) gave a remaining compound of 98.4%.
`Cc1c(CC(=O)N2CCN(C(=O)C3COc4ccccc4O3)CC2)c(=O)oc2cc(O)c(Cl)cc12` (centres unmarked) gave a remaining compound of 43.8%.
With `c1ccc(-c2ccc(-c3cn4c5ccccc5nc4n3CCN3CCCCC3)cc2)cc1` the remaining compound was 0.323%.
For `COc1cc(Br)c(S(=O)(=O)NC2CCN(C(=O)c3ccccc3)CC2)cc1OC`, the remaining compound was 94.1%.

Set 3
SMILES: CCCOc1ccc([C@H]2[C@H](C(=O)O)[C@@H](c3ccc4c(c3)OCO4)CN2CC(=O)Nc2c(CC)cccc2CC)cc1
Effect on: cell-free assay
Method: competition with immobilised ligand
Tested at: 1 µM
The remaining binding was 92% (Mast/stem cell growth factor receptor Kit, autoinhibited (KIT, Homo sapiens, UniProt P10721)).
Tyrosine-protein kinase Srms (SRMS, Homo sapiens, UniProt Q9H3Y6) — remaining binding: 63%.
The remaining binding was 85% (Serine/threonine-protein kinase pim-1 (PIM1, Homo sapiens, UniProt P11309)).
Epidermal growth factor receptor (EGFR, Homo sapiens, UniProt P00533, G719S) — remaining binding: 89%.
The remaining binding was 94% (Insulin receptor-related protein (INSRR, Homo sapiens, UniProt P14616)).
It gave 77% for remaining binding (Vascular endothelial growth factor receptor 2 (KDR, Homo sapiens, UniProt P35968)).
For 3-phosphoinositide-dependent protein kinase 1 (PDPK1, Homo sapiens, UniProt O15530): remaining binding read 100%.
Phosphatidylinositol 5-phosphate 4-kinase type-2 beta (PIP4K2B, Homo sapiens, UniProt P78356) — remaining binding: 97%.
The remaining binding was 100% (Mitogen-activated protein kinase kinase kinase 10 (MAP3K10, Homo sapiens, UniProt Q02779)).
For TRAF2 and NCK-interacting protein kinase (TNIK, Homo sapiens, UniProt Q9UKE5): remaining binding read 88%.

Set 4
SMILES: CSc1nc(-c2ccnc(N[C@@H](C)c3ccccc3)c2)c(-c2ccc(F)cc2)[nH]1 (racemic)
Effect on: enzyme activity
Action: inhibitor
Tested at: 0.5 µM
Reference: control
Dual specificity tyrosine-phosphorylation-regulated kinase 4 (DYRK4, Homo sapiens, UniProt Q9NR20) — remaining activity: 91.4%.
The remaining activity was 80% (Myotonin-protein kinase (DMPK, Homo sapiens, UniProt Q09013)).
For G protein-coupled receptor kinase 5 (GRK5, Homo sapiens, UniProt P34947): remaining activity read 103%.
For NT-3 growth factor receptor (NTRK3, Homo sapiens, UniProt Q16288): remaining activity read 93.6%.
It gave 101% for remaining activity (Proto-oncogene tyrosine-protein kinase receptor Ret (RET, Homo sapiens, UniProt P07949)).
It gave 88.6% for remaining activity (Mitogen-activated protein kinase kinase kinase 8 (MAP3K8, Homo sapiens, UniProt P41279)).
The remaining activity was 101% (Homeodomain-interacting protein kinase 3 (HIPK3, Homo sapiens, UniProt Q9H422)).
It gave 97.2% for remaining activity (Cyclin-dependent kinase 7 (CDK7, Homo sapiens, UniProt P50613)).
It gave 104% for remaining activity (STE20-like serine/threonine-protein kinase (SLK, Homo sapiens, UniProt Q9H2G2)).
Epidermal growth factor receptor (EGFR, Homo sapiens, UniProt P00533) — remaining activity: 87.1%.

Some of these lines once more (set 2):
`CC(C)(C)OC(=O)Nc1cccc(C(=O)NCc2c(F)cccc2F)n1` has a remaining compound of 9.89%.
The remaining compound of `O=C(NCc1ccc(F)cc1)N1Cc2c(sc3c2CCCC3)-n2cccc2C1c1cccs1` (centres unmarked) is reported as 16.7%.
`O=C(c1ncccn1)N1C2CCC1Cn1c(nnc1-c1ccccc1)C2` (centres unmarked) gave a remaining compound of 98.4%.
